Experimental data of several laboratories.
Protocols differ between the studies behind these lines.
Organism: Staphylococcus epidermidis

With `Oc1c(Br)cc(Br)c2nc3ccc(C(F)(F)F)cc3nc12` the MIC was 0.3 µM (broth microdilution; methicillin-resistant 35984).
`O=c1n(CCNCCOS(=O)(=O)c2ccccc2)c(=O)n(S(=O)(=O)c2ccccc2)c(=O)n1S(=O)(=O)c1ccccc1` has an MIC of 2 mg/L (microbial growth, broth dilution).
The MIC of `CC(C)C[C@H](NC(=O)[C@@H](NC(=O)[C@H](CCCNC(=N)N)NC(=O)[C@H](CCC(N)=O)NC(=O)[C@H](Cc1ccccc1)NC(=O)[C@H](Cc1ccc(O)cc1)NC(=O)[C@H](CC(N)=O)NC(=O)[C@H](Cc1c[nH]c2ccccc12)NC(=O)[C@@H](NC(=O)[C@H](CCCNC(=N)N)NC(=O)[C@H](CCCCN)NC(=O)[C@@H](N)Cc1ccccc1)C(C)C)C(C)C)C(=O)N[C@H](C(=O)N[C@@H](CCCCN)C(=O)N[C@@H](CCCCN)C(=O)N[C@@H](Cc1ccc(O)cc1)C(N)=O)C(C)C` is reported as 25 µM (broth dilution; KCTC 1917).
For `CC[C@H](C)[C@H](NC(=O)[C@H](CCCCN)NC(=O)[C@H](CCCCN)NC(=O)[C@H](Cc1ccccc1)NC(=O)[C@H](Cc1ccccc1)NC(=O)[C@H](CCCCN)NC(=O)[C@H](CCCCN)NC(=O)[C@H](Cc1ccccc1)NC(=O)[C@H](CCCNC(=N)N)NC(=O)[C@@H](N)CCCCN)C(=O)N[C@@H](CCCCN)C(=O)N[C@@H](CCCCN)C(=O)N[C@@H](CO)C(=O)N[C@H](C(=O)N[C@@H](CCCCN)C(=O)N[C@@H](CCCCN)C(=O)N[C@@H](CCCNC(=N)N)C(=O)N[C@H](C(=O)N[C@@H](CCCCN)C(=O)N[C@@H](CCCCN)C(=O)N[C@@H](CC(C)C)C(=O)N[C@@H](Cc1ccccc1)C(=O)N[C@@H](CCCCN)C(=O)N[C@@H](CCCCN)C(=O)N1CCC[C@H]1C(=O)N[C@@H](CCCNC(=N)N)C(=O)N[C@H](C(=O)N[C@H](C(=O)N1CCC[C@H]1C(=O)N[C@H](C(=O)N[C@@H](CO)C(=O)N[C@H](C(=O)N1CCC[C@H]1C(=O)N[C@@H](Cc1ccccc1)C(=O)O)[C@@H](C)CC)[C@@H](C)CC)[C@@H](C)CC)C(C)C)C(C)C)C(C)C`, the MIC was 8 mg/L (broth microdilution; clinical isolate, Mueller-Hinton broth; 20 h, 37 °C).
`CC1COC2=C1C(=O)C(=O)c1c2ccc2c1C(OC(=O)CNC(=O)C(N)CO)CCC2(C)C` (mixture of isomers) has an MIC of 63 µM (GDMCC 1.143; 48 h).
`CC(C)C[C@H](NC(=O)[C@H](CCCNC(=N)N)NC(=O)CNC(=O)CNC(=O)[C@@H](N)CCCNC(=N)N)C(=O)N[C@H]1CSSC[C@@H](C(=O)N[C@H](C(=O)NCC(=O)N[C@@H](CCCNC(=N)N)C(N)=O)C(C)C)NC(=O)[C@H](C(C)C)NC(=O)[C@@H]2CSSC[C@H](NC(=O)[C@H](Cc3ccc(O)cc3)NC1=O)C(=O)N[C@@H](CCCNC(=N)N)C(=O)N[C@@H](CCCNC(=N)N)C(=O)N[C@@H](CCCNC(=N)N)C(=O)N[C@@H](Cc1ccccc1)C(=O)N2` has an MIC of 2.3 µM (broth dilution; ATCC 51625; 18 h, 37 °C).
`N=C(N)NCCC[C@H](NC(=O)[C@H](CCCNC(=N)N)NC(=O)[C@H](Cc1ccccc1)NC(=O)[C@H](CO)NC(=O)[C@H](Cc1ccccc1)NC(=O)[C@H](Cc1c[nH]c2ccccc12)NC(=O)[C@H](Cc1ccccc1)NC(=O)[C@H](CO)NC(=O)[C@H](Cc1ccccc1)NC(=O)[C@H](CCCNC(=N)N)NC(=O)[C@@H](N)CCCNC(=N)N)C(N)=O` has an MIC of 128 µM (broth microdilution; 12228, Mueller-Hinton broth; 24 h, 37 °C, lowest concentration, 95% inhibition, added: BSA).
For `Oc1c(Br)cc(Br)c2nc3ccccc3nc12`, the MIC was 2.35 µM (broth microdilution; 12228).
For `CC[C@H](C)[C@H](N)C(=O)N[C@@H](CCCNC(=N)N)C(=O)N[C@H](C(=O)N[C@@H](Cc1c[nH]c2ccccc12)C(=O)N[C@@H](CCCCN)C(=O)N[C@@H](CCCCN)C(=O)N[C@H](C(=O)N[C@H](C(=O)N[C@@H](CCCNC(=N)N)C(=O)N[C@@H](CCCCN)C(=O)N[C@@H](CCSC)C(=O)N[C@@H](CCCCN)C(=O)N[C@@H](C)C(=O)N[C@H](C(=O)N[C@@H](Cc1ccc(O)cc1)C(=O)N[C@@H](Cc1c[nH]cn1)C(N)=O)[C@@H](C)CC)C(C)C)[C@@H](C)CC)C(C)C`, the MIC was 100 µM (broth dilution; KCTC 1917).
For `Cc1cc(C)c2nc3c(Br)cc(Br)c(O)c3nc2c1`, the MIC was 0.15 µM (broth microdilution; 12228; 16 h, 37 °C).
`O=C(c1ccccc1O)c1[nH]c(Cl)c(Cl)c1-n1c(C(=O)c2ccccc2O)cc(Cl)c1Cl` has an MIC of 5.33 µM (microbial growth; ATCC14990).
For `Oc1c(Br)cc(Br)c2nc3cc(Cl)ccc3nc12`, the MIC was 0.15 µM (broth microdilution; 12228).
For `c1ccc(CCNC2CCCc3c2[nH]c2ccc(C4CCCCC4)cc32)cc1` (centres unmarked), the MIC was 2 mg/L (microbial growth, broth dilution; MRSE).
The MIC of `CC[C@H](C)[C@H](N)C(=O)N[C@@H](CCCNC(=N)N)C(=O)N[C@H](C(=O)N[C@@H](Cc1c[nH]c2ccccc12)C(=O)N[C@@H](Cc1ccccc1)C(=O)N[C@H](C(=O)N[C@@H](CCCCN)C(=O)N[C@H](C(=O)N[C@@H](CCCNC(=N)N)C(=O)N[C@@H](CCCCN)C(=O)N[C@@H](CCSC)C(=O)N[C@@H](CCCCN)C(=O)N[C@@H](C)C(=O)N[C@H](C(=O)N[C@@H](Cc1ccc(O)cc1)C(=O)N[C@@H](Cc1c[nH]cn1)C(N)=O)[C@@H](C)CC)C(C)C)[C@@H](C)CC)C(C)C` is reported as 100 µM (broth dilution; KCTC 1917).

A few entries again:
For `c1ccc(CCNC2CCCc3c2[nH]c2ccc(C4CCCCC4)cc32)cc1` (centres unmarked), the MIC was 2 mg/L (microbial growth, broth dilution; MRSE).
